Assay results collected from several papers.
A part holds a random share of what one study measured. Positions count from the first letter of the parent shown.

Series 1
Target: Interferon regulatory factor 5, full length, phosphomimetic (IRF5, Homo sapiens, UniProt Q13568-2, residues 1-514, S451D/S453D/S456D/S462D)
Method: protein-binding microarray
Form: double-stranded DNA, one strand shown
Matrix: in vitro
Tested at: 940 nM top
Notes: 60-bp whole probe
With: salmon DNA 0.4 mg/ml
Reference: random background probes
Reading: higher = stronger binding
Quantity: fitted relative affinity
Constant ends, left off below: GCCTAGCAC … GTCTTGATTCGCTTGACGCTGCTG
GACGGTTTCGGTATCGGGGCGTGCTAG: 14.3 z-score
GGAAATATTTACCTCTCACGGTGCTAG: 0.041 z-score
GACGGGCTGGACACTGGGGACGTGCTA: -0.765 z-score
ATGGCTTTGCAGATAAATATGTGCTAG: -0.542 z-score
TTAGGTATCCTAATGCTTTAGTGCTAG: -0.0998 z-score
TCACCTCTCTCTATTCAACTGTGCTAG: 2.03 z-score
GACGGTATCGACTTCCGGGACGTGCTA: 4.8 z-score
TTAGCTCTCCTTATCCTTTAGTGCTAG: 0.852 z-score
TCATATATGAATATATAACTGTGCTAG: 0.203 z-score
TTAGAACTGAGCCTGGATTAGTGCTAG: -0.681 z-score
TTAGATTTCGGCACTGGATTAGTGCTA: 0.461 z-score
GACGGTATCGGGTACCGGGACGTGCTA: 5.64 z-score
TTAGAACTGGGGTATCGGTTAGTGCTA: 2.86 z-score
GACGGTATCGGGTTTCGGGATGTGCTA: 5.38 z-score
GACGGTTCCCTTTTCCTTACGTGCTAG: 0.883 z-score
TTAGGTTTCGGGTTACGGTTAGTGCTA: 11 z-score
TCAAAAATGATTTTTTTACTGTGCTAG: -0.166 z-score
TTAGATCGCAGTTTCGATTAGTGCTAG: 6.94 z-score

Series 2
Target: NFE2, bZIP domain (human)
Method: DHFR protein complementation
Matrix: yeast
Notes: single substitutions, most at no-binding floor
Reference: wild-type JUN-FOS pair
Reading: higher = stronger binding
Quantity: binding fitness
Parent: JUN, bZIP domain (human); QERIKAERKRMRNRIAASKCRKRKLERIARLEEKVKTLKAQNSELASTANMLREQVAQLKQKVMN; partner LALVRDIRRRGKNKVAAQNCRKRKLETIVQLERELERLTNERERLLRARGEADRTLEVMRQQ
A57W: -1.43 natural log
L45T: -1.4 natural log
Q55C: -1.46 natural log
K36F: -1.41 natural log
Q41D: -1.26 natural log
A29M: -1.37 natural log
R53S: -1.47 natural log
A40F: -1.54 natural log
L31R: -1.38 natural log
K36H: -0.964 natural log
A40N: -1.32 natural log
K34W: -1.52 natural log
L52A: -1.41 natural log
S47P: -1.52 natural log

Series 3
Target: PABPC1L2, full length, GST fusion (mouse, UniProt A0ABA7IW68)
Method: RNAcompete
Form: RNA
Matrix: in vitro
Tested at: 20 nM
Notes: 7-mer, probes averaged, single round
Reference: mean of 7-mers
Reading: higher = stronger binding
Quantity: 7-mer Z-score
Residues (chain): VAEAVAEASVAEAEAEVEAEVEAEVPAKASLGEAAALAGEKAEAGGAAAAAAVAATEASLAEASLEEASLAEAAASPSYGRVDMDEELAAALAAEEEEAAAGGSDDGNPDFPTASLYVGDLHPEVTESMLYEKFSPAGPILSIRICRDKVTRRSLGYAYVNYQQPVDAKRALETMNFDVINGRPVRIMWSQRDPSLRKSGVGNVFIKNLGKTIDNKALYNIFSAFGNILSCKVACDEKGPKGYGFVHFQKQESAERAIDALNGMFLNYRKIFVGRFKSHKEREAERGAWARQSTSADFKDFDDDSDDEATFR
ACCUGCC: -0.32
CACGAUG: -0.0591
CUUCUGU: -0.474
CUGUUGC: -0.458
CGUCGCC: -0.414
GACUGAU: -0.17
AAAAGCC: 3.71
GGUGGGC: 0.166
AGCACUA: -0.122
UACUGCG: -0.264
UAGGCUU: -0.162
UUAUGUU: -0.304
AUAAAUC: 1.91
CACGGCG: 0.0497
CCUUGAA: -0.0844
GGGUUCU: -0.17
UGCUUAG: -0.22
AUAUCGG: 0.126
GUUCAGC: -0.262
GUUUCAA: -0.336
AUUUACC: 0.0805
ACGAUGU: -0.161

Series 4
Target: human cyclin A2
Observed: peptide binding
Method: competitive growth sequencing
Form: peptide
Organism: Saccharomyces cerevisiae
Strain: cyclin A2-Cln2 fusion strain
Tested at: concentration not given
Notes: peptide tiling library
Reference: unfused Cln2 strain
Reading: direction not given
Quantity: binding score
YRSRIRAEAFIEEIQA: -0.453
DSDSDSEGGAAGGEAD: 1.08
TLPYDLACTGGDFVLF: 0.682
SNFFDVIKQLFSDEKN: 0.471
PLRKAKRARLCSSSSS: 0.535
RKLDLEGIGR: 2.64
IPMIAKNLMCELDE: 0.32
DTERAHSTLDEDLERW: 0.0547
STSRHAKAMFKTEGPD: -0.521
NARRSLNFGGSTGT: 3.29
GRLPAKRKLDLEGIGR: 2.15
HPESPPRKRLKSKGSD: 1.65
RRVLCFDS: 0.581
PKRAKRKLYTSEISSP: 1.02
KRCATPVIIDEILPSK: -0.114

Series 5
Target: RING finger protein unkempt homolog, zinc fingers 1-6, GST-SBP tag (UNK, Homo sapiens, UniProt Q9C0B0, residues 30-357)
UniProt Q9C0B0, sequence (30-357, looked up): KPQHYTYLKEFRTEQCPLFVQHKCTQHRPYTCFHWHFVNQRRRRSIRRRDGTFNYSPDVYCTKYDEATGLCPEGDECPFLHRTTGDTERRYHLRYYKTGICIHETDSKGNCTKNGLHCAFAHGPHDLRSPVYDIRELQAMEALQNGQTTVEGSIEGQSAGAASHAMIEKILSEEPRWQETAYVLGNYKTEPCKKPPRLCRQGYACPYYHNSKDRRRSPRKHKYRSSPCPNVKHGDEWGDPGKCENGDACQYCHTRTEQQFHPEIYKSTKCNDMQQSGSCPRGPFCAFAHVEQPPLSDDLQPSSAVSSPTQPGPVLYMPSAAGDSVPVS
Method: RNA Bind-n-Seq
Form: RNA
Matrix: in vitro
Tested at: not given
Notes: RNA with constant flanks, human and mouse sites, ends assumed
Reference: input RNA pool
Reading: higher = stronger binding
Quantity: bound/input enrichment
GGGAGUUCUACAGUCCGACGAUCGCAAUCAGCAGAGACAUUGAUACUGCUGCCAAAUUUAUUGGUGCAGGUGCUGCAACAGUAGGAGUGGCUGGUUCUGGUGCUGGUAUUGGAACAGUCUUUGGCAGCCUUAUCAUUGGUUAUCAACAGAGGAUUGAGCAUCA: 0.125 ratio
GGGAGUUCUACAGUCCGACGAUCUGCGUCCUUUUUCGUUUUUCGGACGAUGCCUUCAAUACCACCUUUAUUUCCACCAUAGGAAUAGACUUUAAGAUCAAAACAGUGGAACUACAAGGAAAGAAGAUCAAGCUACAGAUAUGGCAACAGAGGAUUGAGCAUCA: 0.567 ratio
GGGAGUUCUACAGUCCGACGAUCCUUACCAAACACUUGCUGAAGUCAGUGUGUACUGAUAUCACUAACCUCAUUUUCAACUUCUUAGCUUCGGAUUUAAUGAUGGCAGUAGACGAUCCUGCAGCCAUUACAAGUGAAAUAAGACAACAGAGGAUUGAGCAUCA: 0.323 ratio
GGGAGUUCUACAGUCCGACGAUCCCUAUUUUAUUAAUUUACUUCCAAACGCAACGAAAGGUCCAUGGACAAUUUGUGGGCCAUUUAAUUCAGGGCCCCCAAUUCGUACGUGGAGAAGUGGGAAUGCAAAAGUACUUUGACCUUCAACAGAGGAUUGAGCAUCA: 0.389 ratio
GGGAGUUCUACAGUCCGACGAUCGAUAAUAAAAUGGGCAUAACCCCGCUUAGAAAUUAUCACCCCAUUGUAGUUCCCGGACUGGGGCGUUCUCUAGGAUUUCUGCCCAAAAUGCCUCGCCUGCGGGUGGUCCACAUGUUUCUGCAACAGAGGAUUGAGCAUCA: 0.737 ratio
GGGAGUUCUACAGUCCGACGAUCCUAUCCAGGAUUCAUCCCGUGUCAACAAUGGUAAAGGGGAUGUAUGGCAUUGAGAAUGAAGUCUUCCUGAGCCUUCCAUGUAUCCUCAAUGCCCGGGGAUUAACCAGCGUUAUCAACCAGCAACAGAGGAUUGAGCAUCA: 0.111 ratio
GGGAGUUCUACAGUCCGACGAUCCCUACAAUAAUGAAAACCUACAGGAAUUUUUUUAUUUUUCAUUUUCCCCUUAGGCAUAUUUAGUAUUUUUCCCCCAGGCAGAUCAUUCUGAGUGUGCGAGUGUGUGUGCACAUGUUACAACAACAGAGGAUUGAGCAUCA: 90.3 ratio
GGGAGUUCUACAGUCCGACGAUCAGUCUUCCAUCAUAAAUUUAACUUCAUUAGAUACCUGAGAAUUAAUAUUGAAAAUACACCAUAUGAAUUUAGUGAAUGUGGGAAAGCUUUCAUCCUUAUUACAUCUUAUUUGAUACUAGGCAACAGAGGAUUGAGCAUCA: 4.91 ratio
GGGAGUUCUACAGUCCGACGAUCGUUUCAGCCGCAGCUGAAUUUGAGAAUGCUGAAUCUGAGGCUGAUUUCAGUAUACAUUUCAAUAGAUUCAACCCCGAUGGGGAAGAGGAAGAUGUUACAGUACAAGAAUGACUUUCUCUUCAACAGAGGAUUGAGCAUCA: 0.221 ratio
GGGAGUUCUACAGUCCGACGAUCAGCUCCAGUGGUAGCUUUGGUGGUACACUCAGUACCAGUAUCUGCUUCGGUGGCUCUCCCUGCACCAGCACUGGCUUUGGAGGCACACUUAGCACCAGUGUCUCCUUUGGUGGCUCUUCCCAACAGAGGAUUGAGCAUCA: 0.214 ratio
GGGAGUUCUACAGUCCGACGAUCCAGAUGAGGAAACUGAGGCCCAGAGAAGCAGAAAGGACUUCUCUGAACCUCACUGUAAAUUAGCAUUAAAUGCAGCCGUCCUACUACUGGCAUUUUACCUACAAAAAUUUUGCUAGGGAUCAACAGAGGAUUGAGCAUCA: 0.556 ratio

Excerpt of the above (series 4):
PLRKAKRARLCSSSSS: 0.535
RKLDLEGIGR: 2.64
IPMIAKNLMCELDE: 0.32
DTERAHSTLDEDLERW: 0.0547
STSRHAKAMFKTEGPD: -0.521
NARRSLNFGGSTGT: 3.29
GRLPAKRKLDLEGIGR: 2.15
HPESPPRKRLKSKGSD: 1.65
